Measurements of several laboratories.
Lines come from different studies, so protocols differ. ± gives the spread as reported.

Structure (SMILES)	target or system	test	test system	setting	measurement	result
F[P-](F)(F)(F)(F)F.OC(Cn1cncn1)(Cn1cc(-[c-]2cccc2)nn1)c1ccc(F)cc1F.[Co+3].c1cc[cH-]c1 (racemic)	Candida glabrata	EUCAST	–	–	MIC50	100 µM
CC(=O)NCCN(CC(=O)NCCN(CC(=O)NCCN(CC(=O)NCCC(N)=O)C(=O)[C@@H](N)Cc1ccccc1)C(=O)[C@@H](N)CCCNC(=N)N)C(=O)[C@@H](N)CCCNC(=N)N	HIV-1 TAR RNA	–	–	concentration not given, 25 °C	binding entropy term TΔS°	-4.68 ± 0.12 kcal/mol
CNCc1ccc2c(c1)C[C@H](CNC(=N)N)[C@H]2NC(=O)C(=O)Nc1ccc(Cl)c(F)c1	env (Human immunodeficiency virus 1, UniProt Q5G5V1)	pseudovirus infection, luciferase reporter	TZM-bl	48 h	IC50	8.6 µM
CC(=O)NCCN(CCC(=O)NCCN(CCC(=O)NCCN(CCC(=O)NCCC(N)=O)C(=O)[C@@H](N)Cc1ccccc1)C(=O)[C@@H](N)Cc1ccccc1)C(=O)[C@@H](N)CCCNC(=N)N	HIV-1 TAR RNA	–	–	concentration not given, 25 °C	binding enthalpy ΔH°	-8.53 ± 0.263 kcal/mol
CNCc1ccc2c(c1)N(C(=O)OCc1c(F)c(F)c(F)c(F)c1F)[C@H](CNC(=N)N)[C@H]2NC(=O)C(=O)Nc1ccc(Cl)c(F)c1	env (Human immunodeficiency virus 1, UniProt Q5G5V5)	pseudovirus infection, luciferase reporter	TZM-bl	48 h	IC50	0.04 µM
C[C@H](Nc1ncnc(N)c1C#N)c1c(-c2ccccc2)[nH]c2c(Cl)cccc2c1=O	–	–	CB17 SCID mice, xenograft, plasma	oral, 50 mg/kg once daily, day 14	Tmax	1.3 ± 0.6 h
